Measured values of several laboratories.
A part holds a random share of what one study measured.

Series 1
Target: Sal-like protein 4, full length isoform A (SALL4, Homo sapiens, UniProt Q9UJQ4, residues 1-1053)
Sequence of UniProt Q9UJQ4 (whole entry, looked up): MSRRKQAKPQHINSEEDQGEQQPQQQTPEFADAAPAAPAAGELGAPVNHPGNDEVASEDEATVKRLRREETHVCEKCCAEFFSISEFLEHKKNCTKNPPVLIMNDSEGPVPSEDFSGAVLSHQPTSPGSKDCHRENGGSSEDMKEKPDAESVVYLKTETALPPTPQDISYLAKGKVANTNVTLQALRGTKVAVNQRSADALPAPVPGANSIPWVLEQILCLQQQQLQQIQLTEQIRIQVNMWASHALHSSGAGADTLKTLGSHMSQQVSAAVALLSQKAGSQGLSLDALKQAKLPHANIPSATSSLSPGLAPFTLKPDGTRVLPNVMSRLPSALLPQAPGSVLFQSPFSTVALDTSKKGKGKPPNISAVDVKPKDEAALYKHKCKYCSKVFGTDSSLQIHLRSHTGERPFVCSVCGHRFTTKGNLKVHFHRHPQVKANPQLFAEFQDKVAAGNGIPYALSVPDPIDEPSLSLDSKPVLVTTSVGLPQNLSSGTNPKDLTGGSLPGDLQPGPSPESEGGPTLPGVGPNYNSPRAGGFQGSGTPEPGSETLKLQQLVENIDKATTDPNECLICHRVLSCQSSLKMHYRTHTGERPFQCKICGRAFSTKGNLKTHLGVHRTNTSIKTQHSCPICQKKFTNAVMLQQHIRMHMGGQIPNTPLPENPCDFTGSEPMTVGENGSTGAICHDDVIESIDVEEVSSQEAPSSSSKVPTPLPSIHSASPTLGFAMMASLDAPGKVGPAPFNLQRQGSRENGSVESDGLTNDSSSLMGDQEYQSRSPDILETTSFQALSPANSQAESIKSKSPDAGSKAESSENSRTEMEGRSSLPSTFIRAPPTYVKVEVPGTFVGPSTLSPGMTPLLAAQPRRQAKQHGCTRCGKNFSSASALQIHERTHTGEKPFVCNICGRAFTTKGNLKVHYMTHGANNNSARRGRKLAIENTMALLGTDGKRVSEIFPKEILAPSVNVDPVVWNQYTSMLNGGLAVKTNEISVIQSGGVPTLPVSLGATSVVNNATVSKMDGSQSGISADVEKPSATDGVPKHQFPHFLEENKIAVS
Method: universal PBM
Molecule type: double-stranded DNA, one strand shown
Medium: in vitro
Tested at: 600 nM
Notes: 8-mer, flanks averaged, mean of replicates
Reading: higher = stronger binding
With `ACCTGCCA` the E-score was -0.103.
`AATGAGAT` has an E-score of 0.289.
The E-score of `ACCGGTGG` is reported as -0.368.
With `AGACGGCG` the E-score was -0.282.
For `AGGCCACT`, the E-score was -0.182.
The E-score of `AATATCAA` is reported as 0.372.
The E-score of `CACACTGA` is reported as -0.0583.
For `AAATCGAA`, the E-score was 0.224.
`CGATCTAG` has an E-score of -0.0363.
With `CACAAACC` the E-score was -0.0416.
The E-score of `CGCCTCAA` is reported as -0.0813.
With `TGTAGGAA` the E-score was 0.119.
The E-score of `TGTAGCAA` is reported as 0.103.
For `AAAGCTGG`, the E-score was -0.113.
With `GACACAAC` the E-score was 0.126.
For `GCAAACGC`, the E-score was -0.125.
With `AAGTCTCG` the E-score was -0.139.
`CAATTCTG` has an E-score of 0.0157.
With `CAAATATG` the E-score was 0.347.
`TGAGTGCA` gave an E-score of -0.0584.
The E-score of `AGCTTAAC` is reported as 0.0727.
`AAATAGCC` has an E-score of 0.0501.
The E-score of `TAGAGGCA` is reported as 0.00971.
`CATGACAG` gave an E-score of -0.0376.

Series 2
Target: Interferon regulatory factor 5, full length, phosphomimetic (IRF5, Homo sapiens, UniProt Q13568-2, residues 1-514, S451D/S453D/S456D/S462D)
Method: protein-binding microarray
Molecule type: double-stranded DNA, one strand shown
Medium: in vitro
Tested at: 940 nM top
Notes: 60-bp whole probe
Together with: salmon DNA 0.4 mg/ml
Baseline: random background probes
Reading: higher = stronger binding
Constant ends, left off below: GCCTAGCAC … GTCTTGATTCGCTTGACGCTGCTG
For `GTCGGACTGGGGTTTCGGGACGTGCTA`, “fitted relative affinity” read 2.19 z-score.
For `GACGGACTAGACACTGGGGACGTGCTA`, “fitted relative affinity” read -0.253 z-score.
For `GGTGCTCTGCAGCTCAGGCAGTGCTAG`, “fitted relative affinity” read -1.05 z-score.
Under “fitted relative affinity”, `TTAGGTCTCGGTTTCGATTAGTGCTAG` is recorded as 8.86 z-score.
`TCAAGGCTGTGTTTTCACACTGTGCTA` — result for “fitted relative affinity”: -0.596 z-score.
`CCCACCCTCAGGGAGCCTGTGTGCTAG` — result for “fitted relative affinity”: -0.247 z-score.
`CCAAGTCTTGTTTTACAATTGTGCTAG` — result for “fitted relative affinity”: 0.385 z-score.
`AGAGCTATCACTATTCTAGGGTGCTAG`: “fitted relative affinity” 0.0389 z-score.
Under “fitted relative affinity”, `TTAGACATCAGTTTCGATTAGTGCTAG` is recorded as 7.67 z-score.
For `GATGGTATCGACTATCGGGACGTGCTA`, “fitted relative affinity” read 5.68 z-score.
`GACGATTCCAGTTTCGAGGCGTGCTAG`: “fitted relative affinity” 4.31 z-score.
`TCATCTTTCTAATTCAAACTGTGCTAG` — result for “fitted relative affinity”: 1.47 z-score.
`GACGATCTCACTTTCGAGACGTGCTAG` — result for “fitted relative affinity”: 2.34 z-score.
`TTATGTTTCGACTATCGGTTAGTGCTA`: “fitted relative affinity” 4.95 z-score.
`TTAGGTATCCTTATCCTTTAGTGCTAG`: “fitted relative affinity” 0.517 z-score.
Under “fitted relative affinity”, `TCAACTTTCCCCTTCCTACTGTGCTAG` is recorded as 1.42 z-score.
For `CATGCTCTTATATACCTGTATGTGCTA`, “fitted relative affinity” read 0.588 z-score.
`GACGGTATCCGTTTCCTGACGTGCTAG` — result for “fitted relative affinity”: 0.559 z-score.
`TTAGGTCTCGGTTACGGTTAGTGCTAG` — result for “fitted relative affinity”: 5.24 z-score.

Series 3
Target: Histone acetyltransferase KAT6A, both winged helices, GST fusion (KAT6A, Homo sapiens, UniProt Q92794, residues 1-181)
Method: protein binding microarray
Molecule type: double-stranded DNA, one strand shown
Medium: in vitro
Tested at: not given
Notes: 8-mer, flanks averaged, mean of 2 arrays, mostly near background
Baseline: not given
Reading: higher = stronger binding
Residues (chain): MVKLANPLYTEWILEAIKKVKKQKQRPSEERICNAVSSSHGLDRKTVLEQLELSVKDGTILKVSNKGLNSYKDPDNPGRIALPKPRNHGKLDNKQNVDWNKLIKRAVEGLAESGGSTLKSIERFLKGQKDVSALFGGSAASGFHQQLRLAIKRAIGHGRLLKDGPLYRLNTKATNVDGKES
For `AGATACCA`, the E-score was -0.0196.
`ACATGCGG` has an E-score of 0.28.
The E-score of `CGACATCA` is reported as -0.0267.
For `AGTGAACT`, the E-score was -0.0964.
`AACTGAAC` gave an E-score of -0.0362.
The E-score of `CTCGAGCA` is reported as -0.166.
`AAGTCCTC` has an E-score of -0.21.
`GTGTCCGA` gave an E-score of 0.113.
The E-score of `CTATATTC` is reported as -0.111.
`GATGTTAC` has an E-score of 0.0258.
With `CAGGCCAA` the E-score was -0.191.
With `CAGATTCA` the E-score was -0.186.
The E-score of `CACAAGGC` is reported as -0.11.
`TAAAGTGA` gave an E-score of -0.124.
`ACACATGT` has an E-score of -0.002.
`ACAACACA` has an E-score of -0.12.
`CCACTGTA` has an E-score of -0.079.
`AGTTGAAT` gave an E-score of -0.0153.
For `AACATTCG`, the E-score was -0.0133.
For `TGTGCCAA`, the E-score was -0.185.
With `TGTGCGAA` the E-score was 0.0131.
For `AGTGACCC`, the E-score was -0.0807.
For `CAACCGGG`, the E-score was 0.158.
For `GAATTGGA`, the E-score was -0.062.

Series 4
Target: RNA binding protein fox-1 homolog 2, RRM domain, GST-SBP tag (RBFOX2, Homo sapiens, UniProt O43251-10, residues 100-194)
Method: RNA Bind-n-Seq
Molecule type: RNA
Medium: in vitro
Tested at: 365 nM
Notes: natural RNA segment, single round, ends assumed
Baseline: no-protein control
Reading: higher = stronger binding
Constant ends, left off below: GGGAGUUCUACAGUCCGACGAUC … UGGAAUUCUCGGGUGCCAA
Construct (chain): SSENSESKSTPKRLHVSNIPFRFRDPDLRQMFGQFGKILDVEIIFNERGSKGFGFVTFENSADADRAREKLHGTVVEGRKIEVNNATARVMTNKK
`CAGUGCUACAAUUAAUGAAGCAAAACUUAAUAUGUAAUCACAAUCUAAAUUAGCAUCAAUACUUUGACAUUCAUUACAUUGGUUUGGGGGAAGAAAAGUAGUUCUGGUAU` — result for “RBNS enrichment (R)”: 0.769.
`UACAAUUGGCUCUGAGAAAAAGGGAGACAUUUUAAAUUCUUUAACUUCUUAUUUCUCGUCCUGUCUCUUUGCAAAGUAUGGGCUUUUUUGUUUUUGUUUUUUAAGGGAAA` — result for “RBNS enrichment (R)”: 0.588.
`AGAGCCCCCAGGUGCUGUUUGCUCAGGAGGCUGCUGUGGGGGUGCCUUCCUCAGCCUCUGGCCCUCUUGGCUCAGAUUCAAUCAAAUGUUGCUUCCCUCUCCUGUCUUUC`: “RBNS enrichment (R)” 0.717.
`UGGCUCUGGGCGGUUCGUGCCCUUGCUAGCCACUACCCUUCAAUUCACCUGUGAUGCUAGCAUUAAUGGCACCACCAUAUUCAUGCCAGUAGGCUCCCUGCAGUCCUUGG`: “RBNS enrichment (R)” 0.357.
For `CUAAACACAACAGGGCACAGCAAAUACGACUUCAUUUGGCUUCGAGUUCCCCAGGCGCUGUAGACACAACAUGAAUCGGGCUCUCUGCUCUCUCCUUAGGGAGCUCGAGU`, “RBNS enrichment (R)” read 0.419.
`AUUCUAAAUUUACUUUUCCUCUAGACCACACUUAAUGCCUGCCUUGAAGACAUUACAGAAAUGAAGGUGUGUUCAUGGGUCAAUAACAGCAAAGUAAUUAUGGACCAAUA` — result for “RBNS enrichment (R)”: 0.648.
`GGGCAGCUCUGGCUAGAUGCCUAUCUUCACCAAUAACAACAGCCACCCUGCCCAGUCUGGAAGAAGAGGAGGAAGACUCUGGAGCCAAGGCAGAGGGGAGCUUGAGGGAC` — result for “RBNS enrichment (R)”: 0.521.
`CAGCUCGCCUGGAUCUGACUCCAAGUGGCUUGGGUGCCUGGUGGGCAGCACCUUGGAGACCAAGCAGCCAUCCCAGCGAAGACUUACCUGCCUGGCCCCACCACCUGGAG` — result for “RBNS enrichment (R)”: 0.335.

Some of these lines once more (series 2):
`TTAGGTATCCTTATCCTTTAGTGCTAG`: “fitted relative affinity” 0.517 z-score.
`TCAAGGCTGTGTTTTCACACTGTGCTA` — result for “fitted relative affinity”: -0.596 z-score.
`TTAGGTCTCGGTTACGGTTAGTGCTAG` — result for “fitted relative affinity”: 5.24 z-score.
For `GTCGGACTGGGGTTTCGGGACGTGCTA`, “fitted relative affinity” read 2.19 z-score.
For `GACGGACTAGACACTGGGGACGTGCTA`, “fitted relative affinity” read -0.253 z-score.
Under “fitted relative affinity”, `TTAGACATCAGTTTCGATTAGTGCTAG` is recorded as 7.67 z-score.
`GACGGTATCCGTTTCCTGACGTGCTAG` — result for “fitted relative affinity”: 0.559 z-score.
